Measurements from different studies.
Each line is one published result; not all experiments were run side by side.
Technique: steady-state kinetics
B1: GTPBP3 E159V (Homo sapiens, UniProt Q969Y2); chain TRRSSGAPAPGSGATIFALSSGQGRCGIAVIRTSGPASGHALRILTAPRDLPLARHASLRLLSDPRSGEPLDRALVLWFPGPQSFTGEDCVEFHVHGGPAVVSGVLQALGSVPGLRPAEAGEFTRRAFANGKLNLTEVVGLADLIHAETEAQRRQALRQLDGELGHLCRGWAETLTKALAHVEAYIDFGEDDNLEEGVLEQADIEVRALQVALGAHLRDARRGQRLRSGVHVVVTGPPNAGKSSLVNLLSRKPVSIVSPEPGTTRDVLETPVDLAGFPVLLSDTAGLREGVGPVEQEGVRRARERLEQADLILAMLDASDLASPSSCNFLATVVASVGAQSPSDSSQRLLLVLNKSDLLSPEGPGPGPDLPPHLLLSCLTGEGLDGLLEALRKELAAVCGDPSTDPPLLTRARHQHHLQGCLDALGHYKQSKDLALAAEALRVARGHLTRLTGGGGTEEILDIIFQDFCVGK
B2: enzyme (Salmonella enterica, UniProt P31570); chain MSDERYQQRQQKVKDRVDARVAQAQEERGIIIVFTGNGKGKTTAAFGTAARAVGHGKNVGVVQFIKGTWPNGERNLLEPHGVEFQVMATGFTWETQNREADTAACMAVWQHGKRMLADPLLDMVVLDELTYMVAYDYLPLEEVISALNARPGHQTVIITGRGCHRDILDLADTVSELRPVKHAFDAGVKAQMGIDY
B3: protein (Phaseolus vulgaris, UniProt V7ASW7); chain MALKDAQDQQDPRLERISSAIRVIPDFPKPGILFQDITTLLLDPKAFKDTIDLFVERYRDQNINVVAGVEARGFIFGPPIALAIGAKFVPMRKPNKLPGEVISEEYSLEYGTDKIEMHVGAVQPGERALVIDDLIATGGTLDAAIKLLERVGVDVVECACLIELPELKGRDRLGDKPLFVLVKVTA
B4: sacB Y421F (Priestia megaterium, UniProt D5DC07); chain KGNDSKDFNNSYGISHITRDNMVKIPQQQNSDQFKVPAFDESTIKNIASAKGKNASGNTIDLDVWDSWPLQNADGTVATYHGYQIVFALAGDPKDSNDTSVYLFYKKAGDKSIDSWKNAGRVFKDSDKFVPNDPHLKNQTQEWSGSGTLTKDGKVRLFYTDYSGKQYGKQTLTTAQVNMSQPNDNTLKVDGVEDYKSIFDGDGKIYQTVQQFIDEGGYDTGDNHTLRDPHYIEDNGHKYLVFEANTGTEDGYQGEDSLYNRAYYGGNNPFFQSEKKKLLEGSNKEKASLANGALGIIELNDDYTLKKVMKPLITSNTVTDEIERANIFKKDGKWYLFTDSRGSKMTIDGIGQDDVYMLGYVSNTLTGKYKPLNDTGLVLHMDLDPNDKTFTFSHFAVPQTKGDNVVITSYMTNRGFYEDNHSTFAPSFLVNIDGSKTSVVKDRVLEQGQLTVDED
B5: AKR1C2 (Homo sapiens, UniProt P52895); chain MDSKYQCVKLNDGHFMPVLGFGTYAPAEVPKSKALEAVKLAIEAGFHHIDSAHVYNNEEQVGLAIRSKIADGSVKREDIFYTSKLWSNSHRPELVRPALERSLKNLQLDYVDLYLIHFPVSVKPGEEVIPKDENGKILFDTVDLCATWEAMEKCKDAGLAKSIGVSNFNHRLLEMILNKPGLKYKPVCNQVECHPYFNQRKLLDFCKSKDIVLVAYSALGSHREEPWVDPNSPVLLEDPVLCALAKKHKRTPALIALRYQLQRGVVVLAKSYNEQRIRQNVQVFEFQLTSEEMKAIDGLNRNVRYLTLDIFAGPPNYPFSDEY
B6: enzyme E323G (UniProt H9KVH3); chain ADASQIVSEMGAGWNLGNQLEAAVNGTPNETAWGNPTVTPELIKKVKAAGFKSIRIPVSYLNNIGSAPNYTINAAWLNRIQQVVDYAYNEGLYVIINIHGDGYNSVQGGWLLVNGGNQTAIKEKYKKVWQQIATKFSNYNDRLIFESMNEVFDGNYGNPNSAYYTNLNAYNQIFVDTVRQTGGNNNARWLLVPGWNTNIDYTVGNYGFTLPTDNYRSSAIPSSQKRIMISAHYYSPWDFAGEENGNITQWGATSTNPAKKSTWGQEDYLESQFKSMYDKFVTQGYPVVIGGFGSIDKTSYDSSNNVYRAAYAKAVTAKAKKYKMVPVYWDNGHNGQHGFALFNRSNNTVTQQNIINAIMQGMQ
Chain of UniProt O60656 (whole entry, looked up): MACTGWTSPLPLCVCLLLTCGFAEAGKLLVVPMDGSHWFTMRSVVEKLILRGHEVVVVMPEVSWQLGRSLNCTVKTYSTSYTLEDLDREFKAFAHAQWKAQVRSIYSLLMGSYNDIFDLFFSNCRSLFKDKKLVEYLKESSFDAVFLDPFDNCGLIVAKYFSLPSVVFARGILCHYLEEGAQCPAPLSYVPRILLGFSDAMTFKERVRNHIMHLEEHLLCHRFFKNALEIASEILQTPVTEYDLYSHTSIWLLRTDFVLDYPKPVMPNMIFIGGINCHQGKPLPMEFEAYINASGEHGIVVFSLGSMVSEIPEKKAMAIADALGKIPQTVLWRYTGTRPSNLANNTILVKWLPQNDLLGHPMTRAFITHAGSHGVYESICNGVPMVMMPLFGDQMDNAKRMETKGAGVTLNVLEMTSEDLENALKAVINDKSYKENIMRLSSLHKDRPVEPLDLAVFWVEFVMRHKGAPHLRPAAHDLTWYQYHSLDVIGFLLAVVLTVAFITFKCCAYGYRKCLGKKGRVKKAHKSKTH
Chain of UniProt P45370 (whole entry, looked up): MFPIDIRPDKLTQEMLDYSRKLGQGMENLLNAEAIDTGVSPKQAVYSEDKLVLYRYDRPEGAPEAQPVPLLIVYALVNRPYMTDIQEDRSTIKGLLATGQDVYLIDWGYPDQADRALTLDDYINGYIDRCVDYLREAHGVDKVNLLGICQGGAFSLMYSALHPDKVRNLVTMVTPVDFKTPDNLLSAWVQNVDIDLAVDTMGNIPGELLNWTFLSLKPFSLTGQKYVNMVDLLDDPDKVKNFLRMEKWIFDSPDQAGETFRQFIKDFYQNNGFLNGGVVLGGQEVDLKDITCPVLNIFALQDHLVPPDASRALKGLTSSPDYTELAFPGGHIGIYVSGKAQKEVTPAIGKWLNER
Chain of UniProt Q12043 (whole entry, looked up): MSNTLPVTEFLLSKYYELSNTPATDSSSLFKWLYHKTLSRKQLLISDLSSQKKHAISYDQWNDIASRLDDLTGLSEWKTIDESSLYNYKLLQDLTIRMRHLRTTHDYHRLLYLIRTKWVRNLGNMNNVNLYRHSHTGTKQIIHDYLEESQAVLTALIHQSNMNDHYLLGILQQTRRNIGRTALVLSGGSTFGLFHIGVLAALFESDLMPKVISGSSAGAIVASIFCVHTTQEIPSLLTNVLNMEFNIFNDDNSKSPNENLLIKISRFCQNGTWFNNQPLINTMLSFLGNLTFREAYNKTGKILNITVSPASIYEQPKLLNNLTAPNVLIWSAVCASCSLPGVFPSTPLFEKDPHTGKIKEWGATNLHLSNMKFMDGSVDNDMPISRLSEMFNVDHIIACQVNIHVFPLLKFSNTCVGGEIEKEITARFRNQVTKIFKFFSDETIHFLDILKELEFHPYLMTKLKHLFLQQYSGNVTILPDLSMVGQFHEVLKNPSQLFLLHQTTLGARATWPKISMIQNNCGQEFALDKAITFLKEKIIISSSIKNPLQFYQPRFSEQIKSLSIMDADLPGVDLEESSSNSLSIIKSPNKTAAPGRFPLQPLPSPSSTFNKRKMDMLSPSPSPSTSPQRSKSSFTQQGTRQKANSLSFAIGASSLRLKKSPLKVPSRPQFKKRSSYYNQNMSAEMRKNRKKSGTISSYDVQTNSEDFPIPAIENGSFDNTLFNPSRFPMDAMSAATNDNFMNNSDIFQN
Chain of UniProt Q04JB0 (whole entry, looked up): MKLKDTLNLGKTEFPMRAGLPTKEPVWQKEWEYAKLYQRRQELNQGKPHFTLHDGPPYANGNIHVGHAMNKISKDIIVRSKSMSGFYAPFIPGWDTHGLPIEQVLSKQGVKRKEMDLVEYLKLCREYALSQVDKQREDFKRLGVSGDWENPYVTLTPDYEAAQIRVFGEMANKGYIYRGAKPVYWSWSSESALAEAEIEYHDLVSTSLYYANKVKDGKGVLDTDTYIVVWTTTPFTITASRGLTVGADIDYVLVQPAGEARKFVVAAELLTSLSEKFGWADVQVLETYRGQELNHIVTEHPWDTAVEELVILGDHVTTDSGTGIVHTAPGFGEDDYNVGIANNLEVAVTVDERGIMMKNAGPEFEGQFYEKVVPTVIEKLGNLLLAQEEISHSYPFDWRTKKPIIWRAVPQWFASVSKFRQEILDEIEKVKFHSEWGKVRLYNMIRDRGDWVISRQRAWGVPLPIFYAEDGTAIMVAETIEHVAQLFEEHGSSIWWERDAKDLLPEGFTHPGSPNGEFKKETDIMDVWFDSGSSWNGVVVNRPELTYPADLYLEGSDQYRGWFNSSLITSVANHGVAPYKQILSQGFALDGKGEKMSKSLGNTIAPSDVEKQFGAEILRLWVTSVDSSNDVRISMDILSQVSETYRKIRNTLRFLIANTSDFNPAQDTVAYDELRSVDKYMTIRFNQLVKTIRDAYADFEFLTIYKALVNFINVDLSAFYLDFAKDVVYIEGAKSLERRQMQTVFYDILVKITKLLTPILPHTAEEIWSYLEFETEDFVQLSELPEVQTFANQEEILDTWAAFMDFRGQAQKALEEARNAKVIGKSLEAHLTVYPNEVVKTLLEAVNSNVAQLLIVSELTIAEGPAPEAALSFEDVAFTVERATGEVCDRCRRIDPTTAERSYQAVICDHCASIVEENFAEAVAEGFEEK
Chain of UniProt P07914 (whole entry, looked up): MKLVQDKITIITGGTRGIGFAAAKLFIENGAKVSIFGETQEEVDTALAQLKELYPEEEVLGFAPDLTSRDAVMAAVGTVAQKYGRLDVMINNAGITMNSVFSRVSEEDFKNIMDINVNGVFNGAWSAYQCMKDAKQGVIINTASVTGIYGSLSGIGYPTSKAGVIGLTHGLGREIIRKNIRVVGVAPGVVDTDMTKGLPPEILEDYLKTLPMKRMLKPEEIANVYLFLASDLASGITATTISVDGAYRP

| Substance | substrate | conditions | measurement | result |
| --- | --- | --- | --- | --- |
| B1 (GTPBP3 E159V) | Nc1nc2c(ncn2[C@@H]2O[C@H](COP(=O)(O)OP(=O)(O)OP(=O)(O)O)[C@@H](O)[C@H]2O)c(=O)[nH]1 | pH 8, 37 °C, KCl 300 mM | Km | 26.1 µM |
| B2 (enzyme) | Nc1ncnc2c1ncn2[C@@H]1O[C@H](COP(=O)(O)OP(=O)(O)OP(=O)(O)O)[C@@H](O)[C@H]1O | pH 8, 37 °C | Km | 7 µM |
| B3 (protein) | O=P(O)(O)OC[C@H]1O[C@H](OP(=O)(O)OP(=O)(O)O)[C@H](O)[C@@H]1O | pH 7.5, 37 °C, MgCl2 5 mM, with: adenine 1 mM | Km | 940 µM |
| B4 (sacB Y421F) | OC[C@H]1O[C@@](CO)(O[C@H]2O[C@H](CO)[C@@H](O)[C@H](O)[C@H]2O)[C@@H](O)[C@@H]1O | pH 6.6 | Km | 31700 µM |
| B5 (AKR1C2) | C=C1C[C@@H]2[C@H](CC[C@]3(C)C(=O)CC[C@@H]23)[C@@]2(C)C=CC(=O)C=C12 | 37 °C | Km | 16.4 µM |
| trypsin (Saccharopolyspora erythraea, UniProt Q54137) | NCCCC[C@H](NC(=O)c1ccccc1)C(=O)Nc1ccc([N+](=O)[O-])cc1 | pH 8, 25 °C | Km | 680 µM |
| ileS (Streptococcus pneumoniae, UniProt Q04JB0) | CC[C@H](C)[C@H](N)C(=O)O | pH 7.2, 37 °C, with: ATP 2 mM | Km | 0.4 µM |
| protein (Allochromatium vinosum, UniProt P45370) | C[C@@H](O)CC(=O)SCCNC(=O)CCNC(=O)[C@H](O)C(C)(C)COP(=O)(O)OP(=O)(O)OC[C@H]1O[C@@H](n2cnc3c(N)ncnc32)[C@H](O)[C@@H]1OP(=O)(O)O | pH 7.8, 30 °C | Km | 110 µM |
| B6 (enzyme E323G) | OC[C@H]1O[C@H](F)[C@H](O)[C@@H](O)[C@@H]1O[C@@H]1O[C@H](CO[C@H]2OC[C@@H](O)[C@H](O)[C@H]2O)[C@@H](O[C@@H]2O[C@H](CO[C@H]3OC[C@@H](O)[C@H](O)[C@H]3O)[C@@H](O[C@@H]3O[C@H](CO[C@H]4OC[C@@H](O)[C@H](O)[C@H]4O)[C@@H](O)[C@H](O)[C@H]3O)[C@H](O)[C@H]2O)[C@H](O)[C@H]1O | pH 7.5, 30 °C, apparent | Km | 9500 µM |
| BaiA1 (Clostridium scindens, UniProt P07914) | NC(=O)c1ccc[n+]([C@@H]2O[C@H](COP(=O)(O)OP(=O)(O)OC[C@H]3O[C@@H](n4cnc5c(N)ncnc54)[C@H](O)[C@@H]3O)[C@@H](O)[C@H]2O)c1 | pH 8.7, 37 °C, cofactor varied, with: glycocholic acid 1.4 mM | Km | 17 µM |
| protein (Actinidia deliciosa, UniProt C7SHN9) | CC(C)=CCC/C(C)=C/CC/C(C)=C/CO[P@@](=O)(O)OP(=O)(O)O | pH 7.5, with: FPP 1-100 µM | Km | 9.5 µM |
| alanine aminopeptidase (Neisseria meningitidis, UniProt Q9JYV4) | NC(=O)Cc1cc(=O)oc2cc(NC(=O)[C@@H](N)CC3CCCCC3)ccc12 | pH 7.5, 37 °C | Km | 122 µM |
| UGT1A9 (Homo sapiens, UniProt O60656) | COc1cc2c(=O)c(-c3ccccc3)coc2cc1O | pH 7.4, 37 °C | Vmax | 0.00114 µmol/min/mg |
| TGL5 (Saccharomyces cerevisiae, UniProt Q12043) | CCCCCCCC/C=C\CCCCCCCC(=O)OC[C@@H](O)COP(=O)(O)O | pH 7.5, 30 °C, with: oleoyl-CoA 14C | Km | 18.7 µM |

A few entries again:
| Substance | substrate | conditions | measurement | result |
| --- | --- | --- | --- | --- |
| protein (Actinidia deliciosa, UniProt C7SHN9) | CC(C)=CCC/C(C)=C/CC/C(C)=C/CO[P@@](=O)(O)OP(=O)(O)O | pH 7.5, with: FPP 1-100 µM | Km | 9.5 µM |
| alanine aminopeptidase (Neisseria meningitidis, UniProt Q9JYV4) | NC(=O)Cc1cc(=O)oc2cc(NC(=O)[C@@H](N)CC3CCCCC3)ccc12 | pH 7.5, 37 °C | Km | 122 µM |
